# Measured values from different studies.
# A part holds a random share of what one study measured. Changes are numbered by the printed parent chain.

# Series 1 — technique: universal PBM; form: double-stranded DNA, one strand shown; medium: in vitro; tested at: 600 nM; reading: higher = stronger binding
# Target: Sal-like protein 4, full length isoform A (SALL4, Homo sapiens, UniProt Q9UJQ4, residues 1-1053)
# Sequence of UniProt Q9UJQ4 (whole entry, looked up): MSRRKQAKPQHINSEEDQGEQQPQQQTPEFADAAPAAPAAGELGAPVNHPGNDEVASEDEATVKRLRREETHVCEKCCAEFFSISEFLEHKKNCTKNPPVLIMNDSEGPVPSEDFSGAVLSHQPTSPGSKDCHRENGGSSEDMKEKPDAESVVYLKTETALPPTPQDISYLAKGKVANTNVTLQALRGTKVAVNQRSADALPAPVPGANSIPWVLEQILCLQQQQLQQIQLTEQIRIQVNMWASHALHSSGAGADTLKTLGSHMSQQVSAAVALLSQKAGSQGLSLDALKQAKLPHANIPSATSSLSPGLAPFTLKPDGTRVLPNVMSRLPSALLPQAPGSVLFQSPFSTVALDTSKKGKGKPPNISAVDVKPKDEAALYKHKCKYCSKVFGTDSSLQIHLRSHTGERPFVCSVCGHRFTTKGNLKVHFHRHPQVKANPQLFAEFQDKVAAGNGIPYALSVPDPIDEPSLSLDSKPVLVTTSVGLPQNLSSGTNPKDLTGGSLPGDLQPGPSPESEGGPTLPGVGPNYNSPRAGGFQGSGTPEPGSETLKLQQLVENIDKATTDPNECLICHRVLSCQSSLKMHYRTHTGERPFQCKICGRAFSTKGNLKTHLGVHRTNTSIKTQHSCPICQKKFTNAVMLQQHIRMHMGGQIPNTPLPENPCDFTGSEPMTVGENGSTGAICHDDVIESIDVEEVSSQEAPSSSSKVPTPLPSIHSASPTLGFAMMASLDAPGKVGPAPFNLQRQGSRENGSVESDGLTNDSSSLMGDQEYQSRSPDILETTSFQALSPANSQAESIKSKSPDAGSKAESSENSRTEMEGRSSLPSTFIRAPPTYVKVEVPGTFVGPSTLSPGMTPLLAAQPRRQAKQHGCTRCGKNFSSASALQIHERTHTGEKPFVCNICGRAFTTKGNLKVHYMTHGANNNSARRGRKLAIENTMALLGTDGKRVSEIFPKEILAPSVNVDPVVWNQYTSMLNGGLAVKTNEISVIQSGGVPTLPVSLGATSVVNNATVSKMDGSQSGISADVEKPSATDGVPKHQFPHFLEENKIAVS
# Setting: 8-mer, flanks averaged, mean of replicates
Strand,E-score
CTGTGACC,-0.225
TCCACTCA,0.00434
ACAGGTCC,-0.193
AATATAGT,0.377
ATCGCATC,-0.117
CCCGAGCC,-0.284
GATCACCC,-0.201
AGTACGAA,0.147
ATATGCTG,0.153
CTTGGATC,-0.0848
ATACTTCC,0.158
ACGTGTCA,0.0474
AACCGGCG,-0.321
GCCTGCTA,-0.113
ATAGTAAG,0.186
TAACCGGA,-0.0675
ACCGGAGT,-0.277
TCCCAGAA,-0.0373
TCCGCCCA,-0.247
CCGGGGTC,-0.395
AATCTCCT,0.0345

# Series 2 — technique: RNA Bind-n-Seq; form: RNA; medium: in vitro; tested at: 365 nM; reference: no-protein control; reading: higher = stronger binding
# Target: RNA binding protein fox-1 homolog 2, RRM domain, GST-SBP tag (RBFOX2, Homo sapiens, UniProt O43251-10, residues 100-194)
# Setting: natural RNA segment, single round, ends assumed
# All sequences stand within: GGGAGUUCUACAGUCCGACGAUC … UGGAAUUCUCGGGUGCCAA
# Construct (chain): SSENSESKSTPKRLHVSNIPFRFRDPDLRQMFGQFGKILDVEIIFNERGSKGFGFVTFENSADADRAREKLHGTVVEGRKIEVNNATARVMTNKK
Strand,RBNS enrichment (R)
GUGUCUCCCUUAGAUGAGAUCUAGACGCCCCCAAAUCCUUGAGAUGUGGGUAUAGCUCAGGGUAAGCUGCUCUGAGGUAAAGGUCCAUGAACCCUGCCCCACUCCUGUCA,0.239
GAAGUUGACAAGACACAUCUUGAGUAUGGCUGGCACUGGUUCCUCCAUCAAGAACCAAGUUCACCUUCAGCUCCUGUGGCCCCGCCCCCAGGCUGGAGUCAGAAAUGUUU,0.245
GCCUGCCCGCCUUCUGUCCUGGAUCAGGAAGAUGGUAGCCUGCUGUUAGUAGCUUCACAGGGCUUUUAUGUUUAACUUAUUCCCAGGGGCCGUCCCACCCUGCUGUGCCU,0.73
UUCCUUGGGGAAGAUGCGUGGAGCUGUCCACAGAUAGCCUACCCACUGGAUUGCUACCGCCGUGUGUGGUGUUUUCAUACAAACGUACGUUUUGAGAGAAAAGUCAAAGG,0.231
GAGCUUUCUGCAAAUAGCUUGAAGGAGGAAACAAUUUCUGAACACACAAGUAGCACCGUGUCGCCUCCCUUUAUCUUCAUAUUGAUAAAAGACUUUAUGUGGAUCUUGUA,0.278
CCAGUGAUGUUUCCACGGUGCCUGUACACAGCCGAGCAGCAUUUCCGUUGAAGGACUUGCAUCCCCAUUGCGGGCAGUGCUGGACGUGUCCCGGAGACCCACCGGGAGGG,0.687
CAUUCCCAGGAGGAAAAGGUGGCAGAGAGGGCAGUACUGAGUAUGUCAGAAGAGCCCUCCUGGUUUUUUAGCGAUUUGAACCCACUAGACAAUGUGUGCACAUAGGGAAU,0.487
AGCAGCCUCUUUUUAAAGUGUGAUGUUUUGCCUUUCCACCUAAAGACCAGGAGAGAAUUUGGGCCCUUACUGACCUGUCCUCCUUCAGGGACAUGAGCAUUCCCUAUAGA,0.402

# Series 3 — target: CCNF, cyclin fold, Cln2 fusion (human); technique: yeast growth competition, sequencing; medium: yeast; setting: strong parent motif; reference: not given; reading: higher = stronger binding
# Starting sequence: CDC25A docking peptide (human); PPHRRRLLFACSP; partner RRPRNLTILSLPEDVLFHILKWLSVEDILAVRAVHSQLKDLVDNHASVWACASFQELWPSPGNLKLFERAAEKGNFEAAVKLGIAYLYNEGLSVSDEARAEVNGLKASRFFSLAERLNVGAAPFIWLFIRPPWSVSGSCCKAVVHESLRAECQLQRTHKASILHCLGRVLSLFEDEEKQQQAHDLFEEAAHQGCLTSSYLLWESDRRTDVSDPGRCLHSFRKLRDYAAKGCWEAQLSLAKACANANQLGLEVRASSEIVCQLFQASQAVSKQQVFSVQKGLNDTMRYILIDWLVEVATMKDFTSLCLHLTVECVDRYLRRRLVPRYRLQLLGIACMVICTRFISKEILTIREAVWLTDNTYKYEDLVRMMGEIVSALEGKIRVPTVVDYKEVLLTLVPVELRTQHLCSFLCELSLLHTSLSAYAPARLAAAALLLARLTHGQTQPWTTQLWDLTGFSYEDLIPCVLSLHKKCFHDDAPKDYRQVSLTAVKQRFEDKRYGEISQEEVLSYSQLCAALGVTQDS
Substitution,normalised enrichment score
PPHRRRLLCACSP [F9C],1.37
PPHRRELLFACSP [R6E],3.74
PPHRRRLRFACSP [L8R],6.02
RPHRRRLLFACSP [P1R],6.15
PPHMRRLLFACSP [R4M],3.54
PPHRRRLLFLCSP [A10L],7.73
PPMRRRLLFACSP [H3M],7.87
PPHRRRLLFKCSP [A10K],6.8
PPHRRRPLFACSP [L7P],0.788
PQHRRRLLFACSP [P2Q],6.98
MPHRRRLLFACSP [P1M],7.51
PPHRSRLLFACSP [R5S],1.44
PPHNRRLLFACSP [R4N],6.26
PPHRRRLKFACSP [L8K],6.57
SPHRRRLLFACSP [P1S],6.96
PPHRRRLLFACSA [P13A],7.95
PPHDRRLLFACSP [R4D],1.81
PPHRRGLLFACSP [R6G],1
PPHRHRLLFACSP [R5H],1.78
PGHRRRLLFACSP [P2G],6.59
DPHRRRLLFACSP [P1D],6.98
PPHRRRLLFMCSP [A10M],8.05
PPHRWRLLFACSP [R5W],2.66

# Series 4 — technique: competition protein-binding microarray; form: double-stranded DNA, one strand shown; medium: in vitro; tested at: 2 µM; added: Pho4 competitor, 0.05 µM; reading: higher = stronger binding; all sequences stand within: … GTCTTGATTCGCTTGACGCTGCTG
# Target: Centromere-binding protein 1, full length, His-tagged (CBF1, Saccharomyces cerevisiae, UniProt P17106, residues 1-351)
# Sequence of UniProt P17106 (whole entry, looked up): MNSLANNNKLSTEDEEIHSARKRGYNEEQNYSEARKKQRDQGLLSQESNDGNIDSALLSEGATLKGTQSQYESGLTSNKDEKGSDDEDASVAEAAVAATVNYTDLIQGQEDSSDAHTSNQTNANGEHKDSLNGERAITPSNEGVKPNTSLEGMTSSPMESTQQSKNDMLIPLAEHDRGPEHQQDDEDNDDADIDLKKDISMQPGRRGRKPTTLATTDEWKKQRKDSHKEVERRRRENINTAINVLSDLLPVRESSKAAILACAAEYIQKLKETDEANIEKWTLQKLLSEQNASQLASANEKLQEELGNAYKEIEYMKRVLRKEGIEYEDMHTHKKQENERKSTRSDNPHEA
# Setting: whole 60-bp probe, lowest competitor level
Strand,fluorescence intensity
TCTTTCTTTCACCATCACGTCTTGGTCTGTAACAAG,83.3 a.u.
CTAACGAAGGTTTGCGCGGTGGGTGACAAGCCAAGT,59.6 a.u.
AATTACTGGTTCACACTCGTGGGTACCAAACGATTC,87.9 a.u.
GTATTCTCGGATCGGCACGCAAGCGCAATGCTGAGA,64.2 a.u.
CTAACGAAGGTTTTTCACGTGACCTACAAGCCAAGT,8670 a.u.
TTTACGCGCGGTGTTTTCGTGGCCGTACCGCATTGG,69.7 a.u.
TGGACGCAATTGGTTGGTGTGACGCCACTTTCTCTT,79.9 a.u.
AGGGTGTTGATGGTGCTCGTGTTGAATACATTTGTG,99 a.u.
AAAGCGGTAATTTGTGAGGTGGGTGCAGATATCTAT,67.8 a.u.
TTTCTTTTCCACTATTACGTGGTGATTCCAGTAGCG,88.5 a.u.
CAGAGAACCGGTAGCCACATGCAAACTAAAACTTTC,103 a.u.
GTCTTGTCTCATTGTCACGGGACTTTCCCCACTTCA,1130 a.u.
AGATTTAGTCTATCCCACATGACAGGCAACAGCTCG,182 a.u.
GGTTCTCAAAGCAGCAACGTGCTTTCTGCCACCGTT,120 a.u.
CATACCCAACCTTGCCAAGTGGGTGAAGATATTTGT,64 a.u.
CTTTCCCGATCTTTTCACGTGGCATTAGCACATTTG,742 a.u.
CTAACGAAGGTTTTTCACGTGAGTTACAAGCCAAGT,860 a.u.
CATACCCAACCTTTTCACGTGGCATAAGATATTTGT,916 a.u.
CTAACGAAGGTTTGAGTTGTGGGTGACAAGCCAAGT,71.7 a.u.

# Excerpt of the above (series 3):
Substitution,normalised enrichment score
PPHRRRLRFACSP [L8R],6.02
RPHRRRLLFACSP [P1R],6.15
PPHMRRLLFACSP [R4M],3.54
PPHRRRLLFLCSP [A10L],7.73
PPMRRRLLFACSP [H3M],7.87
PPHRRRLLFKCSP [A10K],6.8
PPHRRRPLFACSP [L7P],0.788
